Assay results of several laboratories.
Numbers after ± are the reported error. In brackets after ≈: the same amount, converted by molar mass.

C=CC(=O)N1CCC(c2ccc(C(N)=O)c(-c3ccc(Oc4ccccc4)cc3)n2)CC1
incidence of fatal serious TEAEs (CTCAE 4.03; patients with relapsed/refractory MCL; oral, 150 mg once daily): 0%

CCc1ccc(CC/C=C/c2ccc3c(c2)C(=O)CC3)cc1
Calcium (Sprague-Dawley rat, male; oral, 30 mg/kg/day, 14 days): 2.4 mM

COc1ncccc1-c1cnn2ccc(N3CCN(C(=O)OC(C)C)CC3)nc12
drug concentration (rat, rotarod test, brain; 10 mg/kg, 180 min): 3.6 µM

CCOC(=O)C(CC)(CCCSCCOCCOCCNc1ccc([N+](=O)[O-])c2nonc12)NC(=O)c1ccc(C2CC2)c(Cc2ccc(F)cc2)n1 (racemic)
kinetic solubility (aqueous buffer with DMSO): 9 µg/mL (≈ 12 µM)

COC[C@@H](CC(C)C)NC(=O)c1ccc(C)c(C)c1
PCE to total erythrocyte ratio (Hsd:ICR (CD-1) mouse, female, bone marrow; oral, 1352 mg/kg, 24 h): 0.544

CN1CC[C@@H](c2c(O)cc(O)c3c(=O)cc(-c4ccc(C(F)(F)F)cc4Cl)oc23)[C@@H]1CO
patients with adverse event (measured: Diarrhea; B-cell malignancies; oral, 150 mg, intermittent dosing): 33.3%

NCCCC[C@@H]1NC(=O)[C@@H](Cc2c[nH]c3ccccc23)NC(=O)[C@H](c2ccccc2)NC(=O)[C@@H]2C[C@@H](OC(=O)NCCN)CN2C(=O)[C@H](Cc2ccccc2)NC(=O)[C@H](Cc2ccc(OCc3ccccc3)cc2)NC1=O
subjects with adverse event Fatigue (healthy human volunteers; 1950 µg twice daily): 6%

CC(C)CC(=O)OC[C@H]1O[C@@](C#N)(c2ccc3c(N)ncnn23)[C@H](O)[C@@H]1O
remaining compound (human whole blood; 5 µM, 60 min): 0.439 ± 0.183%

Cc1cccc(Cn2nc(C3CC3)c3c(NC(=O)c4cnc5cc(OCCN6CCN(C)CC6)ccn45)cccc32)n1
adverse events incidence (measured: Anemia; human platinum-resistant ovarian cancer; oral, dose not given, all-causality): 9.1%

C[C@@H]1NC(=O)[C@H](CCCCNC(=O)CO/N=C/C(=O)NCCCC[C@@H]2NC(=O)[C@@H](Cc3ccccc3)NC(=O)[C@H](CC(=O)O)NC(=O)CNC(=O)[C@H](CCCNC(=N)N)NC2=O)NC(=O)CNC(=O)[C@@H]2CCCN2C(=O)[C@H](CCCCNC(=O)CO/N=C/C(=O)NCCCC[C@@H]2NC(=O)[C@@H](Cc3ccccc3)NC(=O)[C@H](CC(=O)O)NC(=O)CNC(=O)[C@H](CCCNC(=N)N)NC2=O)NC(=O)[C@H](CCCCNC(=O)[C@H](CCCCN)NC(=O)[C@H](Cc2ccccc2)NC(=O)CNC(=O)CN2CCCNCCNCCCNCC2)NC(=O)[C@H](CCCCNC(=O)CO/N=C/C(=O)NCCCC[C@@H]2NC(=O)[C@@H](Cc3ccccc3)NC(=O)[C@H](CC(=O)O)NC(=O)CNC(=O)[C@H](CCCNC(=N)N)NC2=O)NC(=O)CNC(=O)[C@@H]2CCCN2C(=O)[C@H](CCCCNC(=O)CO/N=C/C(=O)NCCCC[C@@H]2NC(=O)[C@@H](Cc3ccccc3)NC(=O)[C@H](CC(=O)O)NC(=O)CNC(=O)[C@H](CCCNC(=N)N)NC2=O)NC1=O [copper-64 labelled]
tissue uptake (biodistribution after PET; mouse, U-87 MG tumour xenograft, tumor; intravenous, 24 h): 2.25 ± 0.17 %ID/g

CCN1[C@@H](C(=O)NC23CCC(C(=O)O)(CC2)CC3)[C@H](c2cccc(Cl)c2F)[C@]2(C(=O)Nc3cc(Cl)ccc32)C12CCCCC2
grade ≥3 Anemia incidence (patients with advanced solid tumours; oral, 100 mg): 9.1%

CO[C@H]1C[C@@H]2CC[C@@H](C)[C@@](O)(O2)C(=O)C(=O)N2CCCC[C@H]2C(=O)O[C@H]([C@H](C)C[C@@H]2CC[C@@H](OC(=O)NCCOCCOCCOCCOCCOCCOCCOCCOCCC(=O)N3CCc4cc(Cn5nc(-c6ccc7oc(N)nc7c6)c6c(N)ncnc65)ccc4C3)[C@H](OC)C2)C[C@@H](O)[C@H](C)/C=C(\C)[C@@H](O)[C@@H](OC)C(=O)[C@H](C)C[C@H](C)/C=C/C=C/C=C/1C
treatment-related anaemia incidence (dose-escalation trial; patients with advanced solid tumours; intravenous, all doses weekly, grade ≥3): 9%

CC(=O)c1c(C)c2cnc(Nc3ccc(C4CCN(CCS(C)(=O)=O)CC4)cn3)nc2n(C2CCCC2)c1=O
AUC(0-t) (human, plasma; oral, 50 mg twice daily, day 1, single dose, added: letrozole): 411 ng·h/mL

Repeated from above:
CCN1[C@@H](C(=O)NC23CCC(C(=O)O)(CC2)CC3)[C@H](c2cccc(Cl)c2F)[C@]2(C(=O)Nc3cc(Cl)ccc32)C12CCCCC2
grade ≥3 Anemia incidence (patients with advanced solid tumours; oral, 100 mg): 9.1%

CO[C@H]1C[C@@H]2CC[C@@H](C)[C@@](O)(O2)C(=O)C(=O)N2CCCC[C@H]2C(=O)O[C@H]([C@H](C)C[C@@H]2CC[C@@H](OC(=O)NCCOCCOCCOCCOCCOCCOCCOCCOCCC(=O)N3CCc4cc(Cn5nc(-c6ccc7oc(N)nc7c6)c6c(N)ncnc65)ccc4C3)[C@H](OC)C2)C[C@@H](O)[C@H](C)/C=C(\C)[C@@H](O)[C@@H](OC)C(=O)[C@H](C)C[C@H](C)/C=C/C=C/C=C/1C
treatment-related anaemia incidence (dose-escalation trial; patients with advanced solid tumours; intravenous, all doses weekly, grade ≥3): 9%
